Experimental data of several laboratories.
Compare with care: the assays were run in different laboratories. “And” joins repeats or separate records; there may be more than shown.
PIK3CA E545K with p85: Phosphatidylinositol 4,5-bisphosphate 3-kinase catalytic subunit alpha isoform, with p85 (PIK3CA, Homo sapiens, UniProt P42336, E545K)
PIK3CA E545A: Phosphatidylinositol 4,5-bisphosphate 3-kinase catalytic subunit alpha isoform (PIK3CA, Homo sapiens, UniProt P42336, E545A)
PIK3CA with p85 alpha: Phosphatidylinositol 4,5-bisphosphate 3-kinase catalytic subunit alpha isoform, with p85 alpha (PIK3CA, Homo sapiens, UniProt P42336)
PIK3CA: Phosphatidylinositol 4,5-bisphosphate 3-kinase catalytic subunit alpha isoform (PIK3CA, Homo sapiens, UniProt P42336)
PIK3CA E545K: Phosphatidylinositol 4,5-bisphosphate 3-kinase catalytic subunit alpha isoform (PIK3CA, Homo sapiens, UniProt P42336, E545K)
PIK3CA I800L: Phosphatidylinositol 4,5-bisphosphate 3-kinase catalytic subunit alpha isoform (PIK3CA, Homo sapiens, UniProt P42336, I800L)
PIK3CA E542K: Phosphatidylinositol 4,5-bisphosphate 3-kinase catalytic subunit alpha isoform (PIK3CA, Homo sapiens, UniProt P42336, E542K)

The remaining activity of O=c1c(-c2ccc(Cl)c(CN3CCOCC3)c2)coc2cc(O)ccc12 is reported as 102% (PIK3CA E545K with p85; enzyme activity, inhibitor; 1 µM).
The remaining binding of CNC1C[S+]2CC[S+]3CC[S+](C1)[Ru-4]321([N]=C=S)[n]2c3ccc(OC)cc3c3c4c(c5cc(F)c[n+]1c5c32)C(=O)NC4=O (stereo not shown) is reported as 82% (PIK3CA E545A; KinomeScan; 0.1 µM; reference: untreated).
The inhibition of CN1CCN(Cc2ccc(-c3ccc(CO[C@H]4CCC[C@@H]4NC(=O)c4cc(-c5cnn(C)c5)cnc4N)cc3)cc2)CC1 is reported as -11% (PIK3CA with p85 alpha; SelectScreen kinase profiling; 0.1 µM).
Cc1cccc(O[C@H]2CCC[C@@H](C(C)CNCc3ccncc3)C2)c1 (relative stereo) has an inhibition of 2% (PIK3CA; enzyme activity, inhibitor; 1 µM).
C=CC(=O)N1Cc2nc(-c3cc(-c4cc(Cl)cnc4Cl)c(F)cc3F)n(-c3ccncn3)c2C1 has an inhibition of -10.1% (Phosphatidylinositol 4,5-bisphosphate 3-kinase catalytic subunit alpha isoform, with p55 gamma (PIK3CA, Homo sapiens, UniProt P42336); kinome panel; 1 µM).
For C=CC(=O)N1CCCC(n2c(=O)c3ncccc3n(Cc3ccc(Oc4ccccc4)cc3)c2=O)C1 (stereo not shown), the remaining binding was 90% (PIK3CA E545A; cell-free assay, competition with immobilised ligand; 1 µM).
CNC(=O)C1CCN(c2cc(C)c(F)cc2NC(=O)c2ccc(-c3cc(O)ccc3C)c(C)c2)CC1 has a remaining binding of 65% (PIK3CA (Homo sapiens, UniProt P42336, H1047Y); binding, competition with immobilised ligand; 1 µM).
With Nc1ncc2c(n1)-c1c([nH]c3ccc(C4=CCOCC4)cc13)CCC2 the remaining binding was 89% (PIK3CA E545K; binding, competition with immobilised ligand; 1 µM).
With CCN1CCN(Cc2ccc(C(=O)Nc3ccc(C)c(NCc4cnc5[nH]ccc5c4OC)c3)cc2C(F)(F)F)CC1 the remaining binding was 100% (PIK3CA; binding, competition with immobilised ligand; 1 µM).
The remaining binding of Cc1ccc(-c2c(/C=C(\C#N)C(=O)NC(C)C)n(CCCO)c3ncnc(N)c23)cc1 is reported as 77% (PIK3CA I800L; cell-free assay, competition with immobilised ligand; 1 µM).
The remaining binding of COc1c(Cl)cccc1Nc1c(-c2ccncc2C#C[C@@]2(C)CCCN2C(=O)/C=C/CN(C)C)[nH]c2c1C(=O)NCC2 is reported as 85% (PIK3CA E542K; binding, competition with immobilised ligand; 3 µM).
For C=CC(=O)Nc1cccc(-c2cnc3[nH]cc(C(=O)NC(C)(C)C)c3n2)c1, the inhibition was 28% and 26% (PIK3CA; kinase activity; 0.1 µM).
With CC(=O)c1cnc(N)nc1N1CC[C@H]1c1nn2ccc(Cl)c2c(=O)n1-c1ccccc1 the remaining binding was 51% (PIK3CA I800L; binding, competition with immobilised ligand; 10 µM).
For Cc1cnc2nc1Nc1cccc(c1)COC/C=C/COCc1cc(ccc1OCCN1CCOCC1)N2, the remaining binding was 68% (PIK3CA (Homo sapiens, UniProt P42336, H1047L); binding; 0.1 µM).
The remaining binding of CC(C)=CC1OC(C)(C)C2C=C3C(=O)C(Cl)=CC(O)C3C3C(O)C4OC4C(=O)C132 (stereo not shown) is reported as 52% (PIK3CA E545K; cell-free assay, competition with immobilised ligand; 10 µM).
The remaining activity of CNC(=O)C[C@H](Cc1ccc(C#N)cc1)NC(=O)c1cc(-c2ccc(CN[C@H](C)c3ccc(C)cc3)o2)ccc1Cl is reported as 101% (PIK3CA with p85 alpha; enzyme activity, KinaseProfiler panel; 1 µM).
C=C1CCCCCCCCCC(CO)C1=O (stereo not shown) has a remaining signal of 76% (PIK3CA; cell-free assay; 10 µM).
The inhibition of Cc1nc2c(F)cc(-c3nc(Nc4ccc(CNC(=O)CCCCCCC(=O)NO)cc4)ncc3F)cc2n1C(C)C is reported as 25% (PIK3CA E545K with p85; enzyme activity, inhibitor; 1 µM).
For C=CC(=O)N1CCc2ccc(-n3c(=O)ccc4cnc5ccc(-c6cnn(C)c6)cc5c43)cc21, the remaining binding was 66% (PIK3CA E542K; KINOMEscan; 1 µM; reference: DMSO control).
